Measured values pooled from the literature.
A part holds a random share of what one study measured. Positions count from the first letter of the parent shown.
Chain of UniProt Q9UKS7 (whole entry, looked up): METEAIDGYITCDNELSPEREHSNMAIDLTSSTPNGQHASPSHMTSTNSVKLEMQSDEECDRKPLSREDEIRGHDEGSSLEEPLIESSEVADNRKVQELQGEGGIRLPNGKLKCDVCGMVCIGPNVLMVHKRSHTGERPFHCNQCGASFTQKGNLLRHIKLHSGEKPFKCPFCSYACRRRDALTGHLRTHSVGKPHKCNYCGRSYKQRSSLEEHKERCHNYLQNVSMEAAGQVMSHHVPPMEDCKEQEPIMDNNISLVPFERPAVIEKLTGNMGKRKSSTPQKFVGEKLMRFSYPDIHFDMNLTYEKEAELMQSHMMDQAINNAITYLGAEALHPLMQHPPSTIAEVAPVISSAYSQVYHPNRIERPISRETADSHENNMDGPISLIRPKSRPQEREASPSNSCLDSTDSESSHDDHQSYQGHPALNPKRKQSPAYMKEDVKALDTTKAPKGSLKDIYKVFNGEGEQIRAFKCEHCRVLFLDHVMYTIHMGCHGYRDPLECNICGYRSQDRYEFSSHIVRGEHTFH
Chain of UniProt Q96SW2 (whole entry, looked up): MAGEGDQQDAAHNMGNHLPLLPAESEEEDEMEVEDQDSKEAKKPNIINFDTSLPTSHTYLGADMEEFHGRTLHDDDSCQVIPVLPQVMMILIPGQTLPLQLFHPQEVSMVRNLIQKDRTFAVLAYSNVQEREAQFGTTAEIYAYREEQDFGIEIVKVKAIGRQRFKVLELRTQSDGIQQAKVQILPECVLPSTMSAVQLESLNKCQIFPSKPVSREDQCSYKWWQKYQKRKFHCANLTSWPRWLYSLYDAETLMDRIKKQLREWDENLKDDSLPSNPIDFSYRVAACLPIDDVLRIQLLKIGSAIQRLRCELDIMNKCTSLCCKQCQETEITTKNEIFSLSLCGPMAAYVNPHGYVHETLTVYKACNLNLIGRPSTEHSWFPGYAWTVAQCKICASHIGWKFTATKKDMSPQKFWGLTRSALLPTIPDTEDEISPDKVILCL

Block 1
Target: PABPC1L2, full length, GST fusion (mouse, UniProt A0ABA7IW68)
Method: RNAcompete
Molecule type: RNA
Medium: in vitro
Concentration: 20 nM
Setting: 7-mer, probes averaged, single round
Baseline: mean of 7-mers
Reading: higher = stronger binding
Construct (chain): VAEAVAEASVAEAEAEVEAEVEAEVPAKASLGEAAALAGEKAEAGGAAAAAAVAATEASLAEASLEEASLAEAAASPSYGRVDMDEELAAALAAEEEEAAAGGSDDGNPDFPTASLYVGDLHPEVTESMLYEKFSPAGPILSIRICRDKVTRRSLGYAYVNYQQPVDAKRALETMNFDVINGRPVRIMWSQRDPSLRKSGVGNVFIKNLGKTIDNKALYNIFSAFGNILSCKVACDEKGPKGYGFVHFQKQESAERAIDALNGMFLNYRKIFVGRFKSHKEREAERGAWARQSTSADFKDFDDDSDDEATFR
Strand	7-mer Z-score
GGCGAAG	0.213
ACUGGGC	0.169
CAGCAAC	-0.117
ACUUGAA	0.0732
CUGAUCU	-0.304
AGACGGG	-0.144
GCCCCCC	-0.556
GUACAAC	0.000733

Block 2
Target: Phosphate system positive regulatory protein PHO4, full length, GST-tagged (PHO4, Saccharomyces cerevisiae, UniProt P07270, residues 1-312)
Method: competition protein-binding microarray
Molecule type: double-stranded DNA, one strand shown
Medium: in vitro
Concentration: 2 µM
Setting: whole 60-bp probe, lowest competitor level
Together with: Cbf1 competitor, 0.05 µM
Reading: higher = stronger binding
Constant ends, left off below: … GTCTTGATTCGCTTGACGCTGCTG
Construct (chain): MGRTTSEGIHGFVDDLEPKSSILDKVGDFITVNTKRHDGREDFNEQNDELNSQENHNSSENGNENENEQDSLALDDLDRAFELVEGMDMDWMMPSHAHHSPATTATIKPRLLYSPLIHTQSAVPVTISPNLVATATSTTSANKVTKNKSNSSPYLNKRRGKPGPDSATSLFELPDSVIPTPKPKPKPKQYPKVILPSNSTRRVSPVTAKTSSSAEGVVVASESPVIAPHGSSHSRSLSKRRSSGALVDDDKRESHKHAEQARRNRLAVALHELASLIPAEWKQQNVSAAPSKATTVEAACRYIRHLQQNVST
Strand	fluorescence intensity
CGACCATTTTATCGGCACGCTTCCGCAAGTTGGTTC	8830 a.u.
AGGGTTACACTCCATCACGTGGGACACCATAATTTA	16900 a.u.
CTGCATAGGTGGTTACACGGGGATGGTTTTTCTCTT	7950 a.u.
AAAAGCATTCTTTGTCACGTGCCAGGGTTTGCTCCT	20200 a.u.
CTTTCCCGATCTTTTCACGTGGCTTTAGCACATTTG	12600 a.u.
TGCGCAACAACTTGAACCGTGGGTGTATGTCTAGAA	6880 a.u.
TAGGTGCCGTACTATCGCGTGCCAGCACCATGACAG	8350 a.u.
TTTTGTGAGCTTTCTTTTTACTCAAACGAACTGTGT	3100 a.u.

Block 3
Target: CCND2, cyclin fold, Cln2 fusion (human)
Method: yeast growth competition, sequencing
Medium: yeast
Setting: weak parent motif
Baseline: not given
Reading: higher = stronger binding
Parent: viral docking peptide; TSVRRALFTGGSD; partner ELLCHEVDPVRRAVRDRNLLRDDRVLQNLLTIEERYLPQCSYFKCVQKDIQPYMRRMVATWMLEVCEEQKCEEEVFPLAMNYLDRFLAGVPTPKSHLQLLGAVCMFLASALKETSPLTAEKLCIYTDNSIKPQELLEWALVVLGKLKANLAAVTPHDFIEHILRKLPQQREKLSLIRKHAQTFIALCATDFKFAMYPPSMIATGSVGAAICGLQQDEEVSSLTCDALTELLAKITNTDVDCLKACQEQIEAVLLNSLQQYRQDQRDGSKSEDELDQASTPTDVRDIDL
Variant	normalised enrichment score
TSVRRAEFTGGSD [L7E]	0.0629
TSVRRALFTRGSD [G10R]	0.0832
TSVRRACFTGGSD [L7C]	-0.0432
TSVERALFTGGSD [R4E]	0.00631
TSVRRALFTGNSD [G11N]	-0.0636
TSVRRALFQGGSD [T9Q]	-0.444
TSVRRALHTGGSD [F8H]	0.112
TSVRRAIFTGGSD [L7I]	0.301
TSVRRNLFTGGSD [A6N]	0.0455
TSVRRALFKGGSD [T9K]	0.024
TSVRLALFTGGSD [R5L]	-0.28
TSVRRALFTIGSD [G10I]	0.22
TSVRRAPFTGGSD [L7P]	-0.0498
TSVRRALFTGGID [S12I]	-0.0166
TSVRYALFTGGSD [R5Y]	-0.182
TSNRRALFTGGSD [V3N]	-0.299
TSVRRALFTPGSD [G10P]	-0.246
TSVRRALFAGGSD [T9A]	-0.104
TSVRRALFTGGKD [S12K]	-0.497
TSVYRALFTGGSD [R4Y]	0.397
TSVRRALFTFGSD [G10F]	0.0596
TSVRRALYTGGSD [F8Y]	-0.242
TSVRRALFWGGSD [T9W]	-0.526
TSVRRALFTGRSD [G11R]	-0.0868
TSVNRALFTGGSD [R4N]	0.0118

Block 4
Target: tungstate, free oxyanion
Method: microfluidic competitive inhibition
Medium: in vitro, cell-free expressed
Concentration: not given
Setting: derived from inhibition constants, unchanged parent 2230 nM
Reading: lower = stronger binding
Parent: PafA, mature enzyme, eGFP fusion (Elizabethkingia meningoseptica, UniProt Q9KJX5); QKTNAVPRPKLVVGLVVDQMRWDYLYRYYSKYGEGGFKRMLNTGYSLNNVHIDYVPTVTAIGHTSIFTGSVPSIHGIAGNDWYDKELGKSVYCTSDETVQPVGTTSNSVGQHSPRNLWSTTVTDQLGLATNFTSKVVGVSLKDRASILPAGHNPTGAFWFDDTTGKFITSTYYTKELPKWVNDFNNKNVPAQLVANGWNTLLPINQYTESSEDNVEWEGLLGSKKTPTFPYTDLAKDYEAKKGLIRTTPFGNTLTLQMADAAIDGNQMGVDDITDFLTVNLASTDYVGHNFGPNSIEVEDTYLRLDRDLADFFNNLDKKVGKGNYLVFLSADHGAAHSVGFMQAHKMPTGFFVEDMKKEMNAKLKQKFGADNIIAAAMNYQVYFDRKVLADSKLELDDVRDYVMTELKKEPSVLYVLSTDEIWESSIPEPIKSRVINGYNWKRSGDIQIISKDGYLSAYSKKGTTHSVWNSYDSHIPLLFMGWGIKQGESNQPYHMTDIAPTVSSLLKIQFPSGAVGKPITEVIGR
Variant	oxyanion analog dissociation constant
A390G	2.14 µM
K462V	2.53 µM
K408V	3.04 µM

Block 5
Target: ABI1, truncated, D143A, DHFR fusion (Arabidopsis thaliana)
Method: DHFR PCA, deep sequencing
Medium: yeast
Setting: methotrexate growth selection, single substitutions
Together with: (+)-ABA 17 µM
Baseline: wild-type fitted maximum
Reading: higher = stronger binding
Parent: PYL1, truncated, DHFR fusion (Arabidopsis thaliana); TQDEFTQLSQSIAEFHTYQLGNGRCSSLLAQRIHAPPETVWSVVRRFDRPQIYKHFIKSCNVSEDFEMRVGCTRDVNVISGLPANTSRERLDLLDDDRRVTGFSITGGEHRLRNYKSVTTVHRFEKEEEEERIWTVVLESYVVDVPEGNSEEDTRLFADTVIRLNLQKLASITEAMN
Variant	relative binding score [%]
L29T	40.7
E64I	62.1
C25V	89.4
E174M	55.3
V70T	59.3
N177K	77.6
E89T	1.75
I12M	56.4

Other studies, line by line
Substance	target	test	system	conditions	scale	endpoint	result
O=C1CCC(N2Cc3c(ccc4c3OCC43CCN(Cc4ccccc4)CC3)C2=O)C(=O)N1 (stereo not drawn)	CRBN/Zinc finger protein Helios (Homo sapiens, UniProt Q96SW2+Q9UKS7)	degrader, HiBiT	HEK293	10000 nM, 6 h		protein remaining	30.4%
PhoQ, residues 284 288 289 292 302 303 SSTMSV	PhoP, residues 12 14 15 18 19 NFCKL (Escherichia coli, UniProt P23836)	Sort-seq, measured: YFP reporter	E. coli	PhoQ-PhoP variant library, together with: 10 µM Mg2+	baseline: high Mg2+ state, higher = stronger signaling	fold induction	1.15
